Measurements pooled from the literature.
Compare with care: the assays were run in different laboratories. ± marks the error that the study gave.
LiaR DNA-binding domain D191N: LiaR DNA-binding domain D191N (Enterococcus faecalis, UniProt R3G073)
B1: PTPN2 (Homo sapiens, UniProt P17706); chain MPTTIEREFEELDTQRRWQPLYLEIRNESHDYPHRVAKFPENRNRNRYRDVSPYDHSRVKLQNAENDYINASLVDIEEAQRSYILTQGPLPNTCCHFWLMVWQQKTKAVVMLNRIVEKESVKCAQYWPTDDQEMLFKETGFSVKLLSEDVKSYYTVHLLQLENINSGETRTISHFHYTTWPDFGVPESPASFLNFLFKVRESGSLNPDHGPAVIHCSAGIGRSGTFSLVDTCLVLMEKGDDINIKQVLLNMRKYRMGLIQTPDQLRFSYMAIIEGAKCIKGDSSIQKRWKELSKEDLSPAFDHSPNKIMTEKYNGNRIGLEEEKLTGDRCTGLSSKMQDTM
B2: enzyme E416A (Streptomyces platensis, UniProt A0A0A0V031); chain MQHTTIGDVLREHRRSHPGRTALVDGPVRLTWPELDDRVNRLAGSLAASGIGRGDRIMWLGQNSFRVYELIAAAGKLGAMVCVGYWRWAPPEMEFALRDFDPHLVVWQHQEIHETVARTREALGSDDTARWLRHDSAPQDPDGYEAFLAAGGLADPDLDIDPDSPVLVLYTAAMSGRQCGSLLSHTNLIAMATAAAWLGDIDHTTAFLNSGPMFHIGNHQFWGMPTLLMAGKNVIVRRVVAEEVRDLLVAEECTHAFLMPPTVAEIVRLNRDTGHDLSRLRATVAPHLWEGMATTDTSRFTRSGAAAGRGYGQTELSGFAVTAAYGGPAAGNAGRPGPGLTVRVLDTAGRECAVGEAGEICARGTVVHRGYWNRDEVNAHRFRSGWWHTTDLGRREPDGSLTFLGTTTRMLKSAAANIFPAEVENCIEQHPAVREAAVIGVPNTRWAQDVKAVVVLEPDAGVSEQEIIDHCRPRIASYKKPKSVAFAAALPRTVSGARDYDALDKEYGGGGYPGAATLGPGR
B3: enzyme (Flavobacterium johnsoniae, UniProt A5FLV3); chain KNKMIYLSAALVFAFFTSCKNETQTSASNSSQTEEYVGKEISTDHDAEIDKLISQMTLEEKIGMLHGNSMFANAGVKRLGIPELKMADGPLGVREEISRDNWAPAGWTNDFATYYPAGGALAATWNAEMAHTFGTSLGEELRARDKDMLLSPAINMVRTPLGGRTYEYMSEDPFLNKKIAVPLVVGLQEKDVMACVKHYAANNQETNRDFVDVQIDERTLREIYLPAFEATVKEAKAYSIMGAYNKFRGEYLCENDYMLNKILRDEWGFKGVVVSDWAAVHSTAKSLKNGLDIEMGTPKPFNEFFLADKLIAAVKSGEVSEKEIDLHVKRILRVLFQVKAMGGGERAKGSIATEAHYQDAYKIAAEAIILLKNENNALPLKLDGVKSIAVIGNNATKKNALGGFGAGVKTKREVTPLEGLKNRLPSSVKINYAEGYLEKYEEKNKGNLGNITSTGPVTIDKLDPAKVQEAVEAAKKSDVAIIFAGSNRDYETEASDRRDLHLPFGQEELIKKVIEANPKTIVVMIAGAPFDLNEVSQKSSALVWSWFNGSEGGNALADVILGKVNPSGKLPWTMPKQLKDSPAHATNSFPGDKAVNYAEGILIGYRWFDTKNVAPLYPFGYGLSYTTFALDNAKTDKDSYAQNDVIEVTVDVKNTGKVDGKEVVQLYTSKSDSKITRAAQELKGFKKADVKAGGSEKITIKVPVKELAYYDVAAKKWTVEPGKYTIKLGTSSRDIKKEINFTIK
B4: enzyme A172S/A173G/A497K/C179K/M174T/Q178P (Streptomyces platensis, UniProt A0A0A0V031); chain MQHTTIGDVLREHRRSHPGRTALVDGPVRLTWPELDDRVNRLAGSLAASGIGRGDRIMWLGQNSFRVYELIAAAGKLGAMVCVGYWRWAPPEMEFALRDFDPHLVVWQHQEIHETVARTREALGSDDTARWLRHDSAPQDPDGYEAFLAAGGLADPDLDIDPDSPVLVLYTSGTSGRPKGSLLSHTNLIAMATAAAWLGDIDHTTAFLNSGPMFHIGNHQFWGMPTLLMAGKNVIVRRVVAEEVRDLLVAEECTHAFLMPPTVAEIVRLNRDTGHDLSRLRATVAPHLWEGMATTDTSRFTRSGAAAGRGYGQTELSGFAVTAAYGGPAAGNAGRPGPGLTVRVLDTAGRECAVGEAGEICARGTVVHRGYWNRDEVNAHRFRSGWWHTTDLGRREPDGSLTFLGTTTRMLKSAAENIFPAEVENCIEQHPAVREAAVIGVPNTRWAQDVKAVVVLEPDAGVSEQEIIDHCRPRIASYKKPKSVAFAAALPRTVSGKRDYDALDKEYGGGGYPGAATLGPGR
UniProt P09470, sequence (whole entry, looked up): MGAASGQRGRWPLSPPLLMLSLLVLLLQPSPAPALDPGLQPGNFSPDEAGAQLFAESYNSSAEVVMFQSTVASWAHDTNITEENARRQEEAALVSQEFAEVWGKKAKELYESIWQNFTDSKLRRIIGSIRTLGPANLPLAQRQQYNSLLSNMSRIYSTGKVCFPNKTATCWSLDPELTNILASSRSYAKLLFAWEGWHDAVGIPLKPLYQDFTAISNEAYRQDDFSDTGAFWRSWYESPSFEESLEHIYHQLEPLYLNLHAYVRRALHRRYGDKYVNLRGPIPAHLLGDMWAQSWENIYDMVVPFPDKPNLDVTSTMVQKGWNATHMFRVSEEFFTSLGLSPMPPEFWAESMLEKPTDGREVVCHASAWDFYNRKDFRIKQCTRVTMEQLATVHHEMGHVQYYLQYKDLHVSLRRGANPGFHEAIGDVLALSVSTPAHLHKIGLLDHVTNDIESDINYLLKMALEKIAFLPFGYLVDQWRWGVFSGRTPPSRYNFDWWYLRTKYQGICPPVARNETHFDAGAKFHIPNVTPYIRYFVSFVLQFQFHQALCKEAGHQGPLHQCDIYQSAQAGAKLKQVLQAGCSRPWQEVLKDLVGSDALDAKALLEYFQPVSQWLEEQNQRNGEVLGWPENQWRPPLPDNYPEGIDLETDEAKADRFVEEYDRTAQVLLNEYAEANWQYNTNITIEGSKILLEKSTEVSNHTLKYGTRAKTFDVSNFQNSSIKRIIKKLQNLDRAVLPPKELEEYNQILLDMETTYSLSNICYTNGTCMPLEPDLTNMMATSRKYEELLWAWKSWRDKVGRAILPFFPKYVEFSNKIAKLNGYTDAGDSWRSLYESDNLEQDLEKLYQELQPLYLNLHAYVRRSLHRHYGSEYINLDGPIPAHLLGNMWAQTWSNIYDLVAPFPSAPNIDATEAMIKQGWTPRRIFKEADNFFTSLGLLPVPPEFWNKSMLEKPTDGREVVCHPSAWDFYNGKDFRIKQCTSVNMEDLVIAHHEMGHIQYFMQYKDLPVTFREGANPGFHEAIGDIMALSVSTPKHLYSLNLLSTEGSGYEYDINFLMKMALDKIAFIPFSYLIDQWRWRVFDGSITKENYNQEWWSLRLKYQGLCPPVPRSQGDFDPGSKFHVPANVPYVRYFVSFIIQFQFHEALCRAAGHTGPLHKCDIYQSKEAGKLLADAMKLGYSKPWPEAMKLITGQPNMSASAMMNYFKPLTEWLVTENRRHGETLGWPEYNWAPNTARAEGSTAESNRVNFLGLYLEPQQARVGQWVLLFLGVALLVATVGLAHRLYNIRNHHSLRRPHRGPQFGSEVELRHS
UniProt Q8VYV7, sequence (whole entry, looked up): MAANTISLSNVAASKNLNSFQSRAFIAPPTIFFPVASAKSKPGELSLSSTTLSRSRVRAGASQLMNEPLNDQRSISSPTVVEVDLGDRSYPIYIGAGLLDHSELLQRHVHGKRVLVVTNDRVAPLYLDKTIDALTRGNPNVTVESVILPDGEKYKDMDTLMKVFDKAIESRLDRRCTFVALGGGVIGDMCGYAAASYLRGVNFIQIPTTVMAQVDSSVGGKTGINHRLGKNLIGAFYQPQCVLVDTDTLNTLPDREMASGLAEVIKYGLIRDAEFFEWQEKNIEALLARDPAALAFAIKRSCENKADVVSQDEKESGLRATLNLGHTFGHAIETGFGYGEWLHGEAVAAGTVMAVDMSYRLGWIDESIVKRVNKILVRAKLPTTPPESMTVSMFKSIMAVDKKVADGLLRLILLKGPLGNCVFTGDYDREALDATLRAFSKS
UniProt Q01827, sequence (whole entry, looked up): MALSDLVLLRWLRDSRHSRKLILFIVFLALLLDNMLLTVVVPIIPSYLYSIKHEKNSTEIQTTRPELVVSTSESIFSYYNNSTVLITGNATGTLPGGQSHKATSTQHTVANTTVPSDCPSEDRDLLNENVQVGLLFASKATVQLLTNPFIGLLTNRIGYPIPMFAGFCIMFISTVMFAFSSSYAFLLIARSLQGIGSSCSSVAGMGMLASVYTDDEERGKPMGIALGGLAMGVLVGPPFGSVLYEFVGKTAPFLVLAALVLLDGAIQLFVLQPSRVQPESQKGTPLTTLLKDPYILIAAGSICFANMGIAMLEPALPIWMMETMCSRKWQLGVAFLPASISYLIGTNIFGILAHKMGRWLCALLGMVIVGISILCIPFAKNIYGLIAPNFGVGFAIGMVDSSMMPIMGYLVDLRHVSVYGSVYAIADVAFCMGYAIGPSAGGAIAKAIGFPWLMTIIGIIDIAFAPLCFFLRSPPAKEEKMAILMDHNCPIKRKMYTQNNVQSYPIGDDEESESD
UniProt Q06520, sequence (whole entry, looked up): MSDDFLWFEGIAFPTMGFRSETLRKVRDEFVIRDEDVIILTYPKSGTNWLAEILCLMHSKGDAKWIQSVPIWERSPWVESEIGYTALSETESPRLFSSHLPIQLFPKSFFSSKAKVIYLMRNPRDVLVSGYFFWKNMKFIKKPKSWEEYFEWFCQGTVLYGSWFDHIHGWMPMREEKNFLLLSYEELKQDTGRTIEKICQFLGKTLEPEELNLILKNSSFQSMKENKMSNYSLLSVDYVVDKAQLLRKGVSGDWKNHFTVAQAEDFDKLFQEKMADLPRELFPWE

| Molecule | target or system | assay | test system | setting | endpoint | value |
| --- | --- | --- | --- | --- | --- | --- |
| SULT2A1 (Homo sapiens, UniProt Q06520) | C[C@]12CC[C@H](O)CC1CCC1C2[C@H](O)C(=O)[C@]2(C)[C@@H](c3ccc(=O)oc3)CC[C@]12O | steady-state kinetics |  | pH 7.4, 37 °C, sulfation by SULT2A1, not purified | Km | 39.6 µM |
| CATTTAGGGCTAAAGTCCTATGGTAACCTGA (dsDNA) | LiaR DNA-binding domain D191N | MST | double-stranded DNA, one strand shown |  | Kd | 1880 ± 80 nM |
| Slc18a2 (Rattus norvegicus, UniProt Q01827) | NCCc1cc(=O)oc2cc(N)ccc12 | steady-state kinetics |  | not purified | Km | 13.7 µM |
| ACE (Mus musculus, UniProt P09470) | COc1ccc2c(CC(=O)N[C@@H](CCCNC(=N)N)C(=O)N3CCC[C@H]3C(=O)N3CCC[C@H]3C(=O)NCC(=O)N[C@@H](Cc3ccccc3)C(=O)N[C@@H](CO)C(=O)N[C@@H](C)C(=O)N[C@@H](Cc3ccccc3)C(=O)N[C@@H](CCCCNc3ccc([N+](=O)[O-])cc3[N+](=O)[O-])C(=O)O)cc(=O)oc2c1 | steady-state kinetics |  | pH 6.5 | Km | 14 µM |
| TATTTAGTTAGATATCTAACTAAATA (dsDNA (Staphylococcus aureus); blunt, self-complementary) | MarR family regulatory protein full length assumed F27L (Staphylococcus aureus, UniProt Q5Y812) | ITC | double-stranded DNA, one strand shown |  | Kd | 1250 nM |
| B1 (PTPN2) | CCCC[C@H](NC(=O)[C@H](CC(=O)O)NC(=O)[C@H](CC(=O)O)NC(=O)[C@H](CCC(=O)O)NC(=O)[C@H](Cc1ccc(OP(=O)(O)O)cc1)NC(=O)[C@H](CC(=O)O)NC(=O)[C@H](CC(=O)O)NC(=O)[C@H](CCC(=O)O)NC(=O)[C@H](CC(C)C)NC(=O)[C@H](CCC(=O)O)NC(=O)[C@H](CCC(=O)O)NC(=O)c1ccc2c(c1)C1(OC2=O)c2ccc(O)cc2Oc2cc(O)ccc21)C(=O)N[C@@H](CCC(=O)O)C(=O)N[C@@H](CCC(=O)O)C(N)=O | steady-state kinetics |  | 21 °C | Km | 0.29 µM |
| AGAAATCGTTCTTAAGTCCTATGACA (dsDNA) | LiaR DNA-binding domain D191N | MST | double-stranded DNA, one strand shown |  | Kd | 4060 ± 760 nM |
| B2 (enzyme E416A) | C[C@@]12CCC[C@@](C)(C(=O)OP(=O)(O)OC[C@H]3O[C@@H](n4cnc5c(N)ncnc54)[C@H](O)[C@@H]3O)[C@H]1C[C@@H](O)[C@]13C[C@H]4C[C@H](O[C@@]4(C)C1)[C@@H]23 | steady-state kinetics |  | pH 7.8, 25 °C | Km | 0.42 µM |
| B3 (enzyme) | CC(C)=CCC[C@](C)(O[C@@H]1O[C@H](CO[C@@H]2O[C@H](CO)[C@@H](O)[C@H](O)[C@H]2O)[C@@H](O)[C@H](O)[C@H]1O)[C@H]1CC[C@]2(C)[C@@H]1[C@H](O)C[C@@H]1[C@@]3(C)CC[C@H](O[C@@H]4O[C@H](CO)[C@@H](O)[C@H](O)[C@H]4O[C@@H]4O[C@H](CO)[C@@H](O)[C@H](O)[C@H]4O)C(C)(C)[C@@H]3CC[C@]12C | steady-state kinetics |  | pH 6, 37 °C, apparent | Km | 2840 µM |
| B4 | C[C@@]12CCC[C@@](C)(C(=O)OP(=O)(O)OC[C@H]3O[C@@H](n4cnc5c(N)ncnc54)[C@H](O)[C@@H]3O)[C@H]1C[C@@H](O)[C@]13C[C@H]4C[C@H](O[C@@]4(C)C1)[C@@H]23 | steady-state kinetics |  | pH 7.8, 25 °C | Km | 0.71 µM |
| DHQS (Arabidopsis thaliana, UniProt Q8VYV7) | O=C(O)C(=O)C[C@@H](O)[C@H](O)[C@H](O)COP(=O)(O)O | steady-state kinetics |  | apparent | Km | 2.4 µM |

Repeated from above:
| Molecule | target or system | assay | test system | setting | endpoint | value |
| --- | --- | --- | --- | --- | --- | --- |
| Slc18a2 (Rattus norvegicus, UniProt Q01827) | NCCc1cc(=O)oc2cc(N)ccc12 | steady-state kinetics |  | not purified | Km | 13.7 µM |
| B2 (enzyme E416A) | C[C@@]12CCC[C@@](C)(C(=O)OP(=O)(O)OC[C@H]3O[C@@H](n4cnc5c(N)ncnc54)[C@H](O)[C@@H]3O)[C@H]1C[C@@H](O)[C@]13C[C@H]4C[C@H](O[C@@]4(C)C1)[C@@H]23 | steady-state kinetics |  | pH 7.8, 25 °C | Km | 0.42 µM |
